Experimental data pooled from the literature.
Every numbered part comes from another study and shows a few of its results, in no order. Changes are numbered by the printed parent chain.

Study 1
Target: Centromere-binding protein 1, full length, His-tagged (CBF1, Saccharomyces cerevisiae, UniProt P17106, residues 1-351)
UniProt P17106, sequence (whole entry, looked up): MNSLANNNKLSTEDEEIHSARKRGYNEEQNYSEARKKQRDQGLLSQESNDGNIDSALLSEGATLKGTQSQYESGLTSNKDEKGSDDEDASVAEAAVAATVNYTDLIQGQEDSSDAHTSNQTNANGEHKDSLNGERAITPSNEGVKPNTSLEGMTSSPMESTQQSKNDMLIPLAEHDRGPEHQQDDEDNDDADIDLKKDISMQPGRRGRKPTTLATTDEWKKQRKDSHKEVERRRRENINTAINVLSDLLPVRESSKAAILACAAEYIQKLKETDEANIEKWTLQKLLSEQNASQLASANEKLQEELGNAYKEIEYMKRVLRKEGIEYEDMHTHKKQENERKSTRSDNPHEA
Method: competition protein-binding microarray
Form: double-stranded DNA, one strand shown
Sample: in vitro
Concentration: 2 µM
Setting: whole 60-bp probe, lowest competitor level
Together with: Pho4 competitor, 0.05 µM
Reading: higher = stronger binding
Quantity: fluorescence intensity
Shared flanks, not repeated: … GTCTTGATTCGCTTGACGCTGCTG
AAGTTACTGCCGCTTTACGTGTCTGTGACGGTGCTT: 66.8 a.u.
AAATTACTAAGTTGTCACGCGACTTACCCCGTATGA: 790 a.u.
CATACCCAACCTTGATGCGTGGGTGAAGATATTTGT: 79.6 a.u.
TGCGCAACAACTTGTCACCGTACTTTATGTCTAGAA: 76.1 a.u.
AAATTACTAAGTTGACTAGTGGGTGACGCCGTATGA: 69.4 a.u.
GAATGGTAACCCTGTCACCTGTCTTTGGGAAGGTGG: 145 a.u.
GAGTGCTTTGTTTCTTCCGTGATGGTTTAATGGTCA: 75.5 a.u.
CGATCTTGATGTTGTCCCGTGCCAGGTTGTATAATA: 243 a.u.
CGGGGTTAAGTTTGACACGTGTTTTGCTTGCAGCAG: 1300 a.u.
AGTAGCGGCTGCCGTCACGCACCATGGGTACCATCT: 82.8 a.u.
CCGCCCCCCACCTTGCATGCGGATTGGTTGTCCAAA: 151 a.u.

Study 2
Target: CCND2, cyclin fold, Cln2 fusion (human)
Method: yeast growth competition, sequencing
Sample: yeast
Setting: weak parent motif
Relative to: not given
Reading: higher = stronger binding
Quantity: normalised enrichment score
Starting sequence: MASTL docking peptide (human); PMIAKNLMCELDE; partner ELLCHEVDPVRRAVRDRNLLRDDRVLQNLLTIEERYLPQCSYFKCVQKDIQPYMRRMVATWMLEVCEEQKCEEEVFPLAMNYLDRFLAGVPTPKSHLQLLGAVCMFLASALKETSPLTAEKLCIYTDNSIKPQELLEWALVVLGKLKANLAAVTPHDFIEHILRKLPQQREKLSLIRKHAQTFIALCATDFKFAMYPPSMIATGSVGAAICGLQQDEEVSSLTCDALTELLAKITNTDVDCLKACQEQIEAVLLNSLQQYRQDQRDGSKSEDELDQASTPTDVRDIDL
D12E: 0.0168
N6V: 0.2
K5W: 0.215
M8D: -0.0899
K5I: 0.0414
M8C: -0.222
L7K: 0.444

Study 3
Target: Microphthalmia-associated transcription factor, full length (MITF, Homo sapiens, UniProt O75030-10, residues 1-413)
Method: protein-binding microarray
Form: double-stranded DNA, one strand shown
Sample: in vitro
Concentration: not given
Setting: k-mer, scored over probes, only values ≥0.25
Reading: higher = stronger binding
Quantity: E-score
Residues (chain): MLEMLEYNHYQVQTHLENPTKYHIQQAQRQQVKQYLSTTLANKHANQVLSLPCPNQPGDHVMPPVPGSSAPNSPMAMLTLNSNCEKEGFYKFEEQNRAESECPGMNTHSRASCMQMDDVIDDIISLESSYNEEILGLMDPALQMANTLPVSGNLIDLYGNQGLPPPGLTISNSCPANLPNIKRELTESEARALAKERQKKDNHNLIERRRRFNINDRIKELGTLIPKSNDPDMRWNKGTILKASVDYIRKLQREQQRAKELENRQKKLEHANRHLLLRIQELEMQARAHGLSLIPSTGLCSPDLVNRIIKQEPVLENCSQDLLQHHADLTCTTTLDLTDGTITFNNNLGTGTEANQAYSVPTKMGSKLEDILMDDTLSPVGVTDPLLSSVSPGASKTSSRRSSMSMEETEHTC
TCACGCA: 0.366
TCATGCA: 0.342
TCACACA: 0.254
CGCATGA: 0.423
AATCATG: 0.301
CTCACGC: 0.301
CACACGC: 0.296

Single results of other studies
PhoQ, residues 284 288 289 292 302 303 TNSAEL  fold induction (PhoP, residues 12 14 15 18 19 YHFSH (Escherichia coli, UniProt P23836); Sort-seq, refers to: YFP reporter; E. coli; PhoQ-PhoP variant library, together with: 10 µM Mg2+; relative to: high Mg2+ state, higher = stronger signaling): 8.64

Excerpt of the above (study 1):
AAATTACTAAGTTGTCACGCGACTTACCCCGTATGA: 790 a.u.
CATACCCAACCTTGATGCGTGGGTGAAGATATTTGT: 79.6 a.u.
